# Published values collected from several papers.
# Lines come from different studies, so protocols differ.
# Organism: Pseudomonas aeruginosa
SMILES,technique,strain,medium,time,temperature,setting,MIC
CN[C@H](CC(C)C)C(=O)N[C@H]1C(=O)N[C@@H](CC(N)=O)C(=O)N[C@H]2C(=O)N[C@H]3C(=O)N[C@H](C(=O)N[C@H](C(=O)N[C@@H](CCCNC(=N)N)C(N)=O)c4cc(O)cc(O)c4-c4cc3ccc4O)[C@H](O)c3ccc(c(Cl)c3)Oc3cc2cc(c3O[C@@H]2O[C@H](CO)[C@@H](O)[C@H](O)[C@H]2O[C@H]2C[C@](C)(NCc3ccc(OCc4cn(CC(=O)N[C@H](C(=O)N[C@@H](CCN)C(=O)N[C@H]5CCNC(=O)[C@H]([C@@H](C)O)NC(=O)[C@H](CCN)NC(=O)[C@H](CCN)NC(=O)[C@H](CC(C)C)NC(=O)[C@@H](CC(C)C)NC(=O)[C@H](CCN)NC5=O)[C@@H](C)O)nn4)c(OC)c3)[C@H](O)[C@H](C)O2)Oc2ccc(cc2Cl)[C@H]1O,broth microdilution,ATCC 17978,cation-adjusted Mueller-Hinton broth,,,,46 µM
CC(=O)N[C@@H](CC(C)C)C(=O)N[C@H]1CSSC[C@@H](C(=O)N2CCC[C@H]2C(N)=O)NC(=O)[C@H](CCCCN)NC(=O)[C@H](C(C)C)NC(=O)[C@H](CCCCN)NC(=O)CNC(=O)[C@H](CC(C)C)NC(=O)[C@H](Cc2ccccc2)NC(=O)[C@H](CCCCN)NC(=O)[C@H](CC(C)C)NC(=O)[C@H](CCC(=O)O)NC(=O)[C@H](Cc2ccccc2)NC(=O)[C@H](CCCNC(=N)N)NC(=O)[C@H](CCCCN)NC(=O)[C@H](CC(C)C)NC(=O)[C@H](CC(=O)O)NC(=O)[C@@H]2CCCN2C(=O)[C@H](CCCCN)NC(=O)[C@H](C(C)C)NC(=O)[C@H](CCCCN)NC(=O)[C@H](CCCCN)NC(=O)[C@H](CCCCN)NC1=O,broth dilution,CGMCC strain,,24 h,,,10 to 20 µM
CCn1c(-c2ccc(F)cc2)c(-c2ccc(F)cc2)n(Cc2ccccc2)c1=[Se],broth microdilution,carbapenem-resistant BAA-2108,,24 h,,,> 40 µM
CN[C@H](CC(C)C)C(=O)N[C@H]1C(=O)N[C@@H](CC(N)=O)C(=O)N[C@H]2C(=O)N[C@H]3C(=O)N[C@H](C(=O)N[C@H](C(=O)O)c4cc(O)cc(O)c4-c4cc3ccc4O)[C@H](O)c3ccc(c(Cl)c3)Oc3cc2cc(c3O[C@@H]2O[C@H](CO)[C@@H](O)[C@H](O)[C@H]2O[C@H]2C[C@](C)(NCc3ccc(OCc4cn(CCCCC(=O)N[C@H](C(=O)N[C@@H](CCN)C(=O)N[C@H]5CCNC(=O)[C@H]([C@@H](C)O)NC(=O)[C@H](CCN)NC(=O)[C@H](CCN)NC(=O)[C@H](CC(C)C)NC(=O)[C@@H](CC(C)C)NC(=O)[C@H](CCN)NC5=O)[C@@H](C)O)nn4)c(OC)c3)[C@H](O)[C@H](C)O2)Oc2ccc(cc2Cl)[C@H]1O,broth microdilution,ATCC 27736,cation-adjusted Mueller-Hinton broth,,,,6 µM
CC[C@H](C)[C@H](NC(=O)[C@@H](CCCNC(=N)N)NC(=O)[C@H](CCCNC(=N)N)NC(=O)[C@@H]1CCCN1C(=O)[C@@H]1CCCN1C(=O)[C@H](CCCNC(=N)N)NC(=O)[C@@H]1CCCN1C(=O)[C@H](CCCNC(=N)N)NC(=O)[C@@H]1CCCN1C(=O)[C@H](CC(C)C)NC(=O)[C@H](Cc1ccccc1)NC(=O)[C@@H]1CCCN1C(=O)[C@@H]1CCCN1C(=O)[C@H](CCCCN)NC(=O)[C@H](CC(=O)O)NC(=O)[C@@H](N)C(C)C)C(=O)N[C@@H](Cc1ccc(O)cc1)C(=O)N[C@@H](CC(N)=O)C(=O)N[C@H](CCCNC(=N)N)C(N)=O,broth microdilution,DSM 1117,,18 h,37 °C,25% MHB2,128 µg/mL
CC[C@H](C)[C@H](NC(=O)CN)C(=O)NCC(=O)N[C@@H](C)C(=O)N[C@H](C(=O)N[C@@H](CC(C)C)C(=O)N[C@@H](CCCCN)C(=O)N[C@H](C(=O)N[C@@H](CC(C)C)C(=O)N[C@H](C(=O)N[C@H](C(=O)NCC(=O)N[C@@H](CC(C)C)C(=O)N1CCC[C@H]1C(=O)N[C@@H](C)C(=O)N[C@@H](CC(C)C)C(=O)N[C@H](C(=O)N[C@@H](CO)C(=O)N[C@@H](Cc1c[nH]c2ccccc12)C(=O)N[C@H](C(=O)N[C@@H](CCCCN)C(=O)N[C@@H](CCCNC(=N)N)C(=O)N[C@@H](CCCCN)C(=O)N[C@@H](CCCNC(=N)N)C(=O)N[C@@H](CCC(N)=O)C(=O)N[C@@H](CCC(N)=O)C(N)=O)[C@@H](C)CC)[C@@H](C)CC)[C@@H](C)O)[C@@H](C)O)C(C)C)C(C)C,broth microdilution,4891 resistant,,18 h,37 °C,,4 µM
CC(C)C[C@H](NC(=O)[C@H](CC(C)C)NC(=O)[C@H](CCCCN)NC(=O)[C@H](Cc1ccccc1)NC(=O)[C@@H](NC(=O)[C@H](CCCNC(=N)N)NC(=O)[C@H](CCCCN)NC(=O)[C@H](Cc1c[nH]c2ccccc12)NC(=O)[C@@H](NC(=O)[C@@H](N)CCCNC(=N)N)C(C)C)C(C)C)C(=O)N[C@@H](CCCCN)C(=O)N[C@@H](CCCNC(=N)N)C(=O)N[C@@H](Cc1ccc(O)cc1)C(=O)N[C@@H](Cc1c[nH]c2ccccc12)C(=O)N[C@@H](CCCNC(=N)N)C(N)=O,broth microdilution,01,,,,,7.5 µg/mL
N=C(N)NCCC[C@@H]1NC(=O)[C@H](CCCNC(=N)N)NC(=O)[C@H](CCCNC(=N)N)NC(=O)[C@@H](CCCNC(=N)N)NC(=O)[C@H](Cc2ccc3ccccc3c2)NC(=O)[C@H](Cc2ccc3ccccc3c2)NC(=O)[C@H](Cc2ccc3ccccc3c2)NC1=O,,"1188712, multidrug-resistant",,,,,16 µg/mL
CN[C@H](CC(C)C)C(=O)N[C@H]1C(=O)N[C@@H](CC(N)=O)C(=O)N[C@H]2C(=O)N[C@H]3C(=O)N[C@H](C(=O)N[C@H](C(=O)NCc4cn(CCCCC(=O)N[C@H](C(=O)N[C@@H](CCN)C(=O)N[C@H]5CCNC(=O)[C@H]([C@@H](C)O)NC(=O)[C@H](CCN)NC(=O)[C@H](CCN)NC(=O)[C@H](CC(C)C)NC(=O)[C@@H](CC(C)C)NC(=O)[C@H](CCN)NC5=O)[C@@H](C)O)nn4)c4cc(O)cc(O)c4-c4cc3ccc4O)[C@H](O)c3ccc(c(Cl)c3)Oc3cc2cc(c3O[C@@H]2O[C@H](CO)[C@@H](O)[C@H](O)[C@H]2O[C@H]2C[C@](C)(N)[C@H](O)[C@H](C)O2)Oc2ccc(cc2Cl)[C@H]1O,broth microdilution,ATCC 27736,cation-adjusted Mueller-Hinton broth,,,,6 µM
CCCCCCCC(=O)N[C@@H](CCN)C(=O)N[C@H](C(=O)N[C@@H](CCN)C(=O)N[C@H]1CCNC(=O)[C@H]([C@@H](C)O)NC(=O)[C@H](CCN)NC(=O)[C@H](CCN)NC(=O)[C@H](Cc2cccc(F)c2)NC(=O)[C@@H](CC(C)C)NC(=O)[C@H](CCN)NC1=O)[C@@H](C)O,broth microdilution,colistin-resistant isolates,,,,,1 to 2 µg/mL
CN[C@H](CC(C)C)C(=O)N[C@H]1C(=O)N[C@@H](CC(N)=O)C(=O)N[C@H]2C(=O)N[C@H]3C(=O)N[C@H](C(=O)N[C@H](C(=O)NCC(N)=O)c4cc(O)cc(O)c4-c4cc3ccc4O)[C@H](O)c3ccc(c(Cl)c3)Oc3cc2cc(c3O[C@@H]2O[C@H](CO)[C@@H](O)[C@H](O)[C@H]2O[C@H]2C[C@](C)(NCc3ccc(OCc4cn(CC(=O)N[C@H](C(=O)N[C@@H](CCN)C(=O)N[C@H]5CCNC(=O)[C@H]([C@@H](C)O)NC(=O)[C@H](CCN)NC(=O)[C@H](CCN)NC(=O)[C@H](CC(C)C)NC(=O)[C@@H](CC(C)C)NC(=O)[C@H](CCN)NC5=O)[C@@H](C)O)nn4)c(OC)c3)[C@H](O)[C@H](C)O2)Oc2ccc(cc2Cl)[C@H]1O,broth microdilution,ATCC 27736,cation-adjusted Mueller-Hinton broth,,,,6 µM
CC[C@H](C)[C@H](NC(=O)[C@@H](CCCNC(=N)N)NC(=O)[C@H](CCCNC(=N)N)NC(=O)[C@H](Cc1ccc(O)cc1)NC(=O)[C@H](Cc1c[nH]c2ccccc12)NC(=O)[C@H](CCCNC(=N)N)NC(=O)[C@@H]1CCCN1C(=O)[C@H](CCCNC(=N)N)NC(=O)[C@@H]1CCCN1C(=O)[C@H](CC(C)C)NC(=O)[C@H](Cc1ccc(O)cc1)NC(=O)[C@@H]1CCCN1C(=O)[C@@H]1CCCN1C(=O)[C@H](CCCCN)NC(=O)[C@H](CC(=O)O)NC(=O)[C@@H](N)C(C)C)C(=O)N[C@@H](Cc1ccc(O)cc1)C(=O)N[C@@H](CC(N)=O)C(=O)N[C@H](CCCNC(=N)N)C(N)=O,broth microdilution,DSM 1117,,18 h,37 °C,25% MHB2,128 µg/mL
CCCCCCCC(=O)N[C@@H](CCN)C(=O)N[C@H](C(=O)N[C@@H](CCN)C(=O)N[C@H]1CCNC(=O)[C@H]([C@@H](C)O)NC(=O)[C@H](CCN)NC(=O)[C@H](CCN)NC(=O)[C@H](CCC(C)C)NC(=O)[C@@H](Cc2ccccc2)NC(=O)[C@H](CCN)NC1=O)[C@@H](C)O,broth microdilution,"PAO1, colistin-susceptible",,,,,< 0.125 µg/mL
CC[C@H](C)[C@H](NC(=O)[C@H](Cc1c[nH]c2ccccc12)NC(=O)[C@H](Cc1ccc(O)cc1)NC(=O)[C@H](CCCCN)NC(=O)[C@H](CC(C)C)NC(=O)[C@@H](N)CO)C(=O)N[C@@H](CCCNC(=N)N)C(=O)N[C@@H](Cc1ccc(O)cc1)C(=O)N[C@@H](CCCCN)C(=O)N[C@@H](CCCNC(=N)N)C(=O)N[C@@H](CCC(N)=O)C(=O)NCC(=O)N[C@@H](C)C(=O)N[C@@H](C)C(=O)N[C@@H](CCCNC(=N)N)C(=O)N[C@@H](Cc1ccccc1)C(N)=O,broth dilution,ATCC 27853,,,,,6.3 µM
CC[C@H](C)[C@H](NC(=O)[C@@H](CCCNC(=N)N)NC(=O)[C@H](CCCNC(=N)N)NC(=O)[C@@H]1CCCN1C(=O)[C@@H]1CCCN1C(=O)[C@H](CCCNC(=N)N)NC(=O)[C@@H]1CCCN1C(=O)[C@H](CCCNC(=N)N)NC(=O)[C@@H]1CCCN1C(=O)[C@H](CC(C)C)NC(=O)[C@H](Cc1c[nH]cn1)NC(=O)[C@@H]1CCCN1C(=O)[C@@H]1CCCN1C(=O)[C@H](CCCCN)NC(=O)[C@H](CC(=O)O)NC(=O)[C@@H](N)C(C)C)C(=O)N[C@@H](Cc1ccc(O)cc1)C(=O)N[C@@H](CC(N)=O)C(=O)N[C@H](CCCNC(=N)N)C(N)=O,broth microdilution,DSM 1117,,18 h,37 °C,25% MHB2,64 µg/mL
CN[C@H](CC(C)C)C(=O)N[C@H]1C(=O)N[C@@H](CC(N)=O)C(=O)N[C@H]2C(=O)N[C@H]3C(=O)N[C@H](C(=O)N[C@H](C(=O)NCc4cn(CC(=O)N[C@H](C(=O)N[C@@H](CCN)C(=O)N[C@H]5CCNC(=O)[C@H]([C@@H](C)O)NC(=O)[C@H](CCN)NC(=O)[C@H](CCN)NC(=O)[C@H](CC(C)C)NC(=O)[C@@H](CC(C)C)NC(=O)[C@H](CCN)NC5=O)[C@@H](C)O)nn4)c4cc(O)cc(O)c4-c4cc3ccc4O)[C@H](O)c3ccc(c(Cl)c3)Oc3cc2cc(c3O[C@@H]2O[C@H](CO)[C@@H](O)[C@H](O)[C@H]2O[C@H]2C[C@](C)(N)[C@H](O)[C@H](C)O2)Oc2ccc(cc2Cl)[C@H]1O,broth microdilution,ATCC 13883,cation-adjusted Mueller-Hinton broth,,,,13 µM

# A few entries again:
SMILES,technique,strain,medium,time,temperature,setting,MIC
CC[C@H](C)[C@H](NC(=O)[C@@H](CCCNC(=N)N)NC(=O)[C@H](CCCNC(=N)N)NC(=O)[C@H](Cc1ccc(O)cc1)NC(=O)[C@H](Cc1c[nH]c2ccccc12)NC(=O)[C@H](CCCNC(=N)N)NC(=O)[C@@H]1CCCN1C(=O)[C@H](CCCNC(=N)N)NC(=O)[C@@H]1CCCN1C(=O)[C@H](CC(C)C)NC(=O)[C@H](Cc1ccc(O)cc1)NC(=O)[C@@H]1CCCN1C(=O)[C@@H]1CCCN1C(=O)[C@H](CCCCN)NC(=O)[C@H](CC(=O)O)NC(=O)[C@@H](N)C(C)C)C(=O)N[C@@H](Cc1ccc(O)cc1)C(=O)N[C@@H](CC(N)=O)C(=O)N[C@H](CCCNC(=N)N)C(N)=O,broth microdilution,DSM 1117,,18 h,37 °C,25% MHB2,128 µg/mL
